Published values from different studies.
Numbered parts are unrelated; each lists some results of a single study. Substitutions count along the parent as printed.

Sample 1
Target: Hepatocyte nuclear factor 3-beta, forkhead domain (FOXA2, Homo sapiens, UniProt Q9Y261, residues 142-269)
Method: protein-binding microarray
Form: double-stranded DNA, one strand shown
Medium: in vitro
Tested at: not given
Setting: k-mer, scored over probes, only values ≥0.25
Reading: higher = stronger binding
Target sequence (chain): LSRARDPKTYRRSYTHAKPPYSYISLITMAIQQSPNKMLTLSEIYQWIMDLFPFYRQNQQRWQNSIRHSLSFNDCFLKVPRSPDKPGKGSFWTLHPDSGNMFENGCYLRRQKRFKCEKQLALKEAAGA
Strand	E-score
ATAGTACC	0.28
ATTACTAC	0.279
ACGATTTA	0.278
AATTATGG	0.251
CGATTGTA	0.267
CATAGATA	0.287
ACATAATG	0.318
ACATACGA	0.265
TATAACCA	0.275
TAACAGTA	0.293
ACTATATA	0.347
AATTAATA	0.338
AAATAAAT	0.287

Sample 2
Target: Histone acetyltransferase KAT6A, winged helix 1, GST fusion (KAT6A, Homo sapiens, UniProt Q92794, residues 1-85)
Method: protein binding microarray
Form: double-stranded DNA, one strand shown
Medium: in vitro
Tested at: not given
Setting: 8-mer, flanks averaged, mean of 2 arrays, mostly near background
Relative to: not given
Reading: higher = stronger binding
Residues (chain): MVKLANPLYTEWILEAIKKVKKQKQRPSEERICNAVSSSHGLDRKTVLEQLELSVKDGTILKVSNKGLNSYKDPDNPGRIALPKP
Strand	E-score
TAAACGTA	-0.0381
CAGGGTGA	-0.191
ATGAGGTA	-0.323
CCTCCCCC	0.0575
ACCATTGC	0.0212
ACACCCCG	0.222
ACCGAGAT	-0.0398
TAAGTCCA	-0.172
CTAACGGA	0.0625
CCGCTTGA	0.223
CAGCGCCA	0.188
AATTTCTA	-0.148
CCTGCGCC	0.176
AGATATTA	-0.00194
CACCAGTA	-0.165
CGGTCACG	0.305
GATCGGAC	0.038
CGACTCCA	-0.0441
ACCCAACT	-0.374
TCACCTAA	-0.107
CGCGAGCA	0.0853
CCCTTTAA	-0.000645
GAGTACGA	-0.0392
CAAGCGCA	0.184
ATCCATAG	-0.0117

Sample 3
Target: ABI1, truncated, D143A, DHFR fusion (Arabidopsis thaliana)
Method: DHFR PCA, deep sequencing
Medium: yeast
Setting: methotrexate growth selection, single substitutions
Added: (+)-ABA 0.11 µM
Relative to: wild-type fitted maximum
Reading: higher = stronger binding
Starting sequence: PYL1, truncated, DHFR fusion (Arabidopsis thaliana); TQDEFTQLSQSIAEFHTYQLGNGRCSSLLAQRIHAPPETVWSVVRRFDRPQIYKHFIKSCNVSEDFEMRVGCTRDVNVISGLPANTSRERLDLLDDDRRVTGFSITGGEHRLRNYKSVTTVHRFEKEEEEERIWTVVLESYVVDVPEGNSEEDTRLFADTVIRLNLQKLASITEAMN; partner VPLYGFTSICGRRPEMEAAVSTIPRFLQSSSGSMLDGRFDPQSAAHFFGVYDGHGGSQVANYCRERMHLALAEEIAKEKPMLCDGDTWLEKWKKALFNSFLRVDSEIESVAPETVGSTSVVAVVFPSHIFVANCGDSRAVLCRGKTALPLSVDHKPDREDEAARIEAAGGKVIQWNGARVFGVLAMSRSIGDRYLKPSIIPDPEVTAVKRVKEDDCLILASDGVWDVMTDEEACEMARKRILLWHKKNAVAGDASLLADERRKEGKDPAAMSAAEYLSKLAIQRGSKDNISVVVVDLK
Change	relative binding score
R88S	11.4%
C72A	66.1%
I79V	51.4%
T39K	14.8%
D144M	4.55%
S140Q	-7.1%
T120D	-5.24%
S42N	21%
F103Y	63.9%
F47C	2.65%
L166S	-1.64%
T106D	-1.88%
N177R	15.9%
L156C	28.9%
D144Y	-14.4%
Q7E	39.5%
T101Y	1.73%
D97W	-7.03%
Y141N	2.4%

Sample 4
Target: TAR DNA-binding protein 43, full length, His tag (TARDBP, Homo sapiens, UniProt Q13148, residues 1-414)
Method: RNA Bind-n-Seq
Form: RNA
Medium: in vitro
Tested at: 20 nM
Setting: 6-mer, flanks averaged, single round
Added: 150 mM LiCl
Relative to: input library
Reading: higher = stronger binding
Strand	6-mer enrichment (R)
UCUUGC	0.937
CCAGCU	0.9
AAGCGA	0.844
GUCUGC	0.954
CGUACU	0.838
CCUACC	0.949
UCGGCC	0.927
AUCCGC	0.845
GACGAU	0.86
CCACAA	0.882
AUCCUU	0.929
GUCCGU	0.948
AGUACA	0.841
UCUUGU	1.08
UGGCCA	0.98
GCGACC	0.881
AUCUCG	0.819
GAGGGU	1.24

Sample 5
Target: Hepatocyte nuclear factor 3-alpha (Foxa1, Mus musculus, UniProt P35582, residues 1-468, full length assumed)
Method: EMSA with sequencing
Form: double-stranded DNA, one strand shown
Medium: in vitro
Tested at: 10 and 20 nM
Setting: whole designed probe, mean of two concentrations, ends assumed
Relative to: negative control set to 0
Reading: higher = stronger binding
Strand	normalised bound fraction [ratio]
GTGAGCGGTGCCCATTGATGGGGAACAATCCAGCTACCTATCTTCAGTTCCTTGGCCTTCAGCTGGCAGTGAAACAGACACATCAGCTTTAAGACTGGCAGCCAAATAGTTAACGATCTGTAAACATACAAATACGCATGTAGAGAGTTCCTGTTCAAACAGACTGGATGAAAGCCCTTCCATAAAGAACCCTTTAGGTGATGATGCTAAAATTATTTTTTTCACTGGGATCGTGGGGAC	0.24
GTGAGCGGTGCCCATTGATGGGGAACCATTAGAGTCAAAGTTGTTAAGGGGAGCTAGTCATAGCTACCACGTGGCCAGGCATGTGGAACCAGACACCAGGCACACATCATGAATCATCAAAATTACTTTAAATAATGCTGACAACCTAGTTCATAGTGACACACTACTTGAGATATATAGAATAACATTATTACCCAGTAAGTATGTGAACATTCCGATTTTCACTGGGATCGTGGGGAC	0.116
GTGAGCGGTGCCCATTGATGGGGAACTAAGTAATGCATTTCTGTGATTCAACAAAGATCTATCTCACAGAGATATCTCATTCTGCTCCCTTCCCCCAGTCACATTCTTCTTTGTCTTATGTAATCTTGTCTTGTTTTTTTTTGTTTGCTTCTAGATTATCCTTCAAGTGGGTTTTTTGTTTTTTGTTCTGTCACTATTATATATTTCTCTTCACTCCTGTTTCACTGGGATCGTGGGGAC	0.136
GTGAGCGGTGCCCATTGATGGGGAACAAAGATGGCATGTTGTGATTATAAACCACAGAAGAAATCTCTAATTAGTCATCCTTCTCTGAAAAATTCATTAATACTGATTAAGCCTGCAGAGTCATCTGTGGAATTCTAGTCAAGCAGAACATTTATGGAGTGGCTTTGAAGGAGCTATGAATCGATTGTTCCCAGAAGAGCAGGTCTACCCTCCCAAGAATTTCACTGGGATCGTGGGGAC	-0.0671
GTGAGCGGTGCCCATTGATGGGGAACCCTAGGACCATCTTCTACTTATGAGAGTGAACTTCACTGTATGTCACCAATTCCGTACCTTGTCTATTGTTTAATAGTCGAGATACTGTCAAAGTAAACAAATGCTGCCACCTTGTGGACTGAAGGGTATGGTCTTAACTCCAAATAAGCAAAGGAAGAAAAATACGTTTCTGGTTCGGCCTTTTCTCTCAGATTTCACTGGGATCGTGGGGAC	0.483
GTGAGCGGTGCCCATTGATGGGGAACTCTACACCAATGTCACACTGCCAAATCTCAAAGAAGATTTGGTTGTCACCACTTAAATCCCCTCATGAATGTTCTGGAAAAACTCCCTGCCCTAGATGACATAGCCTCTCTGCATAAAACTCCTATCATATTCCCACTCCTAAATGTCTCCAAAGCCAACTTTGTCACTTACTGATTAATACCTACCATCTCCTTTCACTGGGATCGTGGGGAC	-0.0822
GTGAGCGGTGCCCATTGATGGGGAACATCTTCCCCCTCTTCCTTGCCCCACCAGCTCACCTTCCCGGGTTATTTGCAGATAGGAAAATAAATAAAGCCGGCATTCGTTAACCCTCTTCTGGCGCAAACTGCTGTTTGCTCTGGATGAATCATGGTCCTTTGCGGAGCGCCAGCTCCGGGAGAGCAAAGCACCGTGTCAGGGCCATGATCCGGGGTGGCCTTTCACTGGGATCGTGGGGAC	0.344
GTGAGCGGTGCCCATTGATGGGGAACTTAAAACACACCACCTACATATTTCACATGAGTGAACCAGGATGAATGAATGGATGTTTGCAAGCACCCCAGGGTCCAGGAGGTGAAGTTATGCAAACATCAGTTGTTGTTATATCACCCTCTGCCCTTGGCTAAGGGCCAATATCAACAAGTTCTCTTTTTCCCATCTGCCTTAGAGTTTTCCATGAAGATTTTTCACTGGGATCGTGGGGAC	0.335

Sample 6
Target: CCNE1, cyclin fold, Cln2 fusion (human)
Method: yeast growth competition, sequencing
Medium: yeast
Setting: weak parent motif
Relative to: not given
Reading: higher = stronger binding
Starting sequence: BORA docking peptide (human); SSLRRKLFLDGNG
Change	normalised enrichment score
R5A	0.548
L9A	0.0954
L9F	0.93
K6A	0.973
L3A	4.34
S1A	0.708
L7A	-0.174
R5A L7A	-0.364
S2A	0.909
R5K F8L	0.254

Excerpt of the above (sample 2):
Strand	E-score
ACCATTGC	0.0212
ACCCAACT	-0.374
ACACCCCG	0.222
CCCTTTAA	-0.000645
CGGTCACG	0.305
